{"data": "Measurements from different studies", "note": "Each line is one published result; not all experiments were run side by side. Numbers after ± are the reported error."}
{"Compound": "CCCCN1CCCC[C@@H]1C(=O)Nc1c(C)cccc1C", "target or system": "sodium channel (rat)", "assay": "peak sodium current, blocker, whole-cell patch clamp", "test system": "GH3", "conditions": "tonic block", "endpoint": "Kd", "result": "139 ± 9 µM"}
{"Compound": "Nc1c(C(=O)N2CC(F)(F)C2)sc2nc(-c3ccccc3)ccc12", "target or system": "Mycobacterium tuberculosis", "assay": "growth inhibition", "test system": "H37Rv LepB under-expressing", "endpoint": "IC50", "result": "15 ± 4 µM"}
{"Compound": "FC(F)(F)c1ccc2c(c1)[C@@H]1CNC[C@H]2C1", "assay": "two-bottle choice", "test system": "Wistar rat, intermittent 20% ethanol access", "conditions": "subcutaneous, 5 mg/kg, 6 h", "endpoint": "ethanol intake", "result": "3 ± 0.2 g/kg"}
{"Compound": "C#Cc1nc(C(=O)N2CCC(NC(=O)c3cnc(-c4ccccc4)s3)(c3nc4ccccc4n3C)CC2)cs1", "target or system": "STING (mouse)", "assay": "inhibitor, ELISA", "test system": "iBMDMs", "conditions": "concentration not given, 24 h, together with: 500 nM diABZI", "endpoint": "IFNβ secretion", "result": "inhibited"}
{"Compound": "CN1CCN(S(=O)(=O)c2cc([N+](=O)[O-])ccc2N(CCOS(C)(=O)=O)CCOS(C)(=O)=O)CC1", "test system": "NSG mice, sample CJ PDX", "conditions": "intraperitoneal, 25 mg/kg weekly x3", "scale": "reference: vehicle", "endpoint": "EFS delay (T-C)", "result": "> 142 days"}
{"Compound": "CCCCC1(CCCC)CN(c2ccccc2)c2cc(SC)c(OCC(=O)N[C@@H](C(=O)NCC(=O)O)c3ccccc3)cc2S(=O)(=O)C1", "assay": "item: HDL cholesterol", "test system": "human, serum", "conditions": "15 mg once daily, day 13", "endpoint": "serum HDL-C", "result": "42.9 mg/dL"}
{"Compound": "COC(=O)c1ccc(/C(=C2/N=C(C)C=C2C)c2c(C)cc(C)n2B(F)F)cc1", "target or system": "Schistosoma mansoni", "assay": "microscopic viability scoring", "test system": "newly transformed schistosomula", "conditions": "10 µM, 72 h, prescreen", "endpoint": "viability reduction", "result": "27.6%"}
{"Compound": "COc1c(CCC[P+](c2ccccc2)(c2ccccc2)c2ccccc2)cc2c(c1OC)OCO2.[I-]", "target or system": "NCI-H460", "assay": "SRB", "endpoint": "LC50", "result": "-4.71 log M"}
{"Compound": "CC[C@H](C)[C@H](NC(=O)[C@H](C)NC(=O)[C@H](CCCCN)NC(=O)[C@H](CC(C)C)NC(=O)[C@H](C)NC(=O)[C@@H](NC(=O)[C@H](Cc1c[nH]cn1)NC(=O)[C@H](CC(C)C)NC(=O)[C@@H](NC(=O)[C@@H](NC(=O)[C@H](CCCCN)NC(=O)[C@H](C)NC(=O)[C@H](C)NC(=O)[C@H](CO)NC(=O)[C@H](CCCCN)NC(=O)[C@H](Cc1ccccc1)NC(=O)[C@@H](NC(=O)[C@H](CCCCN)NC(=O)[C@H](CC(C)C)NC(=O)[C@H](Cc1ccccc1)NC(=O)[C@H](CO)NC(=O)[C@H](CCCCN)NC(=O)[C@H](Cc1c[nH]c2ccccc12)NC(=O)[C@H](CCCCN)NC(C)=O)[C@@H](C)O)[C@@H](C)O)C(C)C)[C@@H](C)O)C(=O)N[C@@H](CO)C(=O)N[C@@H](CO)C(N)=O", "target or system": "Klebsiella pneumoniae", "conditions": "40 strains", "endpoint": "MBC90", "result": "32 µg/mL"}
{"Compound": "Cc1ccc(OCCc2cc(F)cc(F)c2)c(C(=O)N(C)C)c1", "target or system": "Mycobacterium tuberculosis", "test system": "H37Rv-LP", "scale": "reference: HepG2 CC50 over Mtb IC90", "endpoint": "selectivity index", "result": 2}
{"Compound": "Nc1c(C(=O)Nc2ccccc2C(F)(F)F)sc2nc(-c3ccccc3)cc(C(F)(F)F)c12", "target or system": "Mycobacterium tuberculosis", "assay": "growth inhibition", "test system": "H37Rv LepB under-expressing", "endpoint": "IC50", "result": "> 100 µM"}
{"Compound": "COC(=O)c1cc2[nH]c(=S)n(Cc3cccnc3)c(=O)c2cc1Cl", "target or system": "Mycobacterium tuberculosis", "test system": "PptT conditional knockdown", "endpoint": "MIC90", "result": "21.2 µM"}
{"Compound": "COc1cc(CCC[P+](c2ccccc2)(c2ccccc2)c2ccccc2)c(OC)c2c1OCO2.[I-]", "target or system": "HT-29", "assay": "SRB", "endpoint": "GI50", "result": "-6.09 log M"}
{"Compound": "C[C@@H](O[C@H]1OCCN(Cc2n[nH]c(=O)[nH]2)[C@H]1c1ccc(F)cc1)c1cc(C(F)(F)F)cc(C(F)(F)F)c1", "target or system": "Human immunodeficiency virus 1", "assay": "viral replication", "test system": "PBMC, subtype A isolate from Uganda, R5, NSI", "endpoint": "IC50", "result": "5.65 µM"}
{"Compound": "COc1ccc(-c2cc(C(F)(F)F)c3c(N)c(C(=O)Nc4cccc(C)c4C)sc3n2)cc1", "target or system": "Mycobacterium tuberculosis", "test system": "H37Rv wild type", "scale": "reference: HepG2 IC50 over M. tuberculosis IC90", "endpoint": "selectivity index", "result": 33}
{"Compound": "CC(/N=N/c1ccc(F)cc1)=C1SCCCS1", "target or system": "Schistosoma mansoni", "assay": "microscopic viability scoring", "test system": "newly transformed schistosomula", "conditions": "10 µM, 72 h, prescreen", "endpoint": "viability reduction", "result": "100%"}
{"Compound": "COc1ccc(-c2cc(C(F)(F)F)c3c(N)c(C(=O)NC45CC(C4)C5)sc3n2)cc1", "target or system": "Mycobacterium tuberculosis", "assay": "growth inhibition", "test system": "H37Rv LepB under-expressing", "endpoint": "IC50", "result": "> 50 µM"}
{"Compound": "CC[C@H](C)[C@@H]1NC(=O)[C@@H]2CCCN2C(=O)[C@H](CC(C)C)NC(=O)[C@H](CC(C)C)NC(=O)CNC(=O)[C@@H](NC(=O)[C@@H](NC(=O)[C@H](CC(=O)O)NC(=O)CNC(=O)[C@@H](NC(=O)[C@H](C)NC(=O)CNC(=O)[C@H](CCCCN)NC(=O)[C@H](CC(C)C)NC(=O)[C@H](CC(C)C)NC(=O)[C@H](CCCCN)NC(=O)CNC(=O)[C@@H](NC(=O)[C@@H](N)CC(C)C)C(C)C)C(C)C)C(C)C)CSSC[C@@H](C(=O)O)NC1=O", "assay": "RNA-seq, item: Phospho1", "test system": "mouse, traumatic brain injury model, frontal cortex and hippocampus", "conditions": "dose not given", "scale": "reference: TBI alone", "endpoint": "log2 fold change", "result": -2.11}
{"note": "Some of these lines once more:"}
{"Compound": "COc1c(CCC[P+](c2ccccc2)(c2ccccc2)c2ccccc2)cc2c(c1OC)OCO2.[I-]", "target or system": "NCI-H460", "assay": "SRB", "endpoint": "LC50", "result": "-4.71 log M"}
{"Compound": "CC[C@H](C)[C@@H]1NC(=O)[C@@H]2CCCN2C(=O)[C@H](CC(C)C)NC(=O)[C@H](CC(C)C)NC(=O)CNC(=O)[C@@H](NC(=O)[C@@H](NC(=O)[C@H](CC(=O)O)NC(=O)CNC(=O)[C@@H](NC(=O)[C@H](C)NC(=O)CNC(=O)[C@H](CCCCN)NC(=O)[C@H](CC(C)C)NC(=O)[C@H](CC(C)C)NC(=O)[C@H](CCCCN)NC(=O)CNC(=O)[C@@H](NC(=O)[C@@H](N)CC(C)C)C(C)C)C(C)C)C(C)C)CSSC[C@@H](C(=O)O)NC1=O", "assay": "RNA-seq, item: Phospho1", "test system": "mouse, traumatic brain injury model, frontal cortex and hippocampus", "conditions": "dose not given", "scale": "reference: TBI alone", "endpoint": "log2 fold change", "result": -2.11}
